Assay results of several laboratories.

SMILES	assay	test system	setting	quantity	value
COc1ccc(-c2c(-c3ccc(C#N)c(F)c3)nc(N3CCC(N)CC3)n(C)c2=O)cc1F	measured: general health deterioration	human patients	oral, dose not given, dose escalation	patients with serious TEAE	4%
CCS(=O)(=O)Nc1ccc(Oc2ccc(F)cc2F)c(-c2cn(C)c(=O)c3[nH]ccc23)c1	measured: Acidosis	human, relapsed/refractory AML	oral, dose not given, trial, added: alone or with venetoclax	patients with serious adverse event	5%
O=C1Nc2cc3[nH]nc(-c4ccncc4)c3cc2CN1Cc1ccccc1	CTCAE v4.03	human, relapsed or refractory advanced solid tumours	intravenous, 9.6 mg/kg, pooled schedules	patients with rash	22%
C[C@@H]1OC(=O)NN=C1c1ccc(-c2ccc(F)cc2)c(C(F)(F)F)c1	phase I trial, measured: Cough worst grade 1	human patients	10 mg loading then 0.5 mg daily	patients with adverse event	0%
Cc1cn([C@H]2O[C@@H](CO[P@@](=O)(N[C@@H](C)C(=O)OC(C)C)Oc3ccccc3)[C@H](O)[C@H]2F)c(=O)[nH]c1=O	measured: blood CPK increased	human	10 mg	patients with TEAE	0%
CCN1[C@@H](C(=O)NC23CCC(C(=O)O)(CC2)CC3)[C@H](c2cccc(Cl)c2F)[C@]2(C(=O)Nc3cc(Cl)ccc32)C12CCCCC2	measured: any-grade treatment-related vomiting	human, advanced solid tumours	oral, dose not given, all sample A patients	patients with adverse event	42.9%
Cn1cncc1-c1c(F)cncc1NC(=O)c1c(N)nn2cc(F)cnc12		human patients	oral, dose not given, all doses	patients grade ≥3 Hyponatremia	6%
COc1ncnn2ccc(-c3cnc4nc(C)n(Cc5nnc([C@@H](C)F)o5)c4c3)c12		human	oral, dose not given, grade 3	patients with tumour lysis syndrome	14.3%
C[C@]1(O)C[C@@](N)(c2ccc(-c3nc4n(c3-c3ccccc3)COc3ccncc3-4)cc2)C1		human, advanced or metastatic solid tumours	24 mg intermittent, phase I dose escalation	patients with Nausea TEAE	0%
C=CC(=O)Nc1cc(Nc2nccc(Nc3cc(Cl)c(F)cc3C(C)(C)O)n2)c(OC)cc1N1CC[C@@H](N(C)C)C1		human patients	oral, 300 mg, treatment-emergent adverse events	patients with lipase increased	15.7%
O=C(c1ccc(F)c(F)c1Nc1ccc(I)cc1F)N1CC(O)([C@@H]2CCCCN2)C1		human patients	oral, dose not given, dose escalation, tablet	patients with SAE leading to withdrawal	0%
Cn1ncc(-c2nc(N[C@H]3CC[C@H](N)CC3)ncc2Cl)c1CC1CC1	measured: treatment-related Nausea	human patients phase I	dose not given	patients with adverse events	51.6%
CCN(CCO)CCCC(C)Nc1ccnc2cc(Cl)ccc12 (stereo not shown)		human, newly diagnosed glioblastoma	oral, 400 mg/dose, WBC decrease grade 1, with RT and TMZ	patients with adverse event	33%

Excerpt of the above:
SMILES	assay	test system	setting	quantity	value
CCS(=O)(=O)Nc1ccc(Oc2ccc(F)cc2F)c(-c2cn(C)c(=O)c3[nH]ccc23)c1	measured: Acidosis	human, relapsed/refractory AML	oral, dose not given, trial, added: alone or with venetoclax	patients with serious adverse event	5%
